# Measurements of several laboratories.
# Numbers after ± are the reported error.
SMILES,cell line,test,conditions,IC50
CC(C)c1ccc(N(C)c2ccc3c(c2)OCC[C@H]3CNc2cnccc2C(=O)O)cc1,SK-MEL-1,"cell growth or viability, ATP luminescence",7 days,0.00924 µM
CC(=O)O[C@H]1OC[C@@H]2C=C([C@@]3(C)CCCC(C)(C)C3)CC[C@H]12,human T-lymphocyte,"cell growth or viability, MTT",48 h,1.3 µM
C=CS(=O)(=O)NCCCCCCOCc1cn(CCCCCCNS(=O)(=O)C=C)nn1,L929,cell growth or viability,72 h,16.6 µM
Cc1ccccc1/C=C/C(=O)N[C@@H](CO)C(=O)N[C@H](C(=O)N[C@H](Cc1ccccc1)C(=O)O)[C@@H](C)O,SK-HEP1,,,> 20 µM
C=C(C)C(=O)NCCCCCCOCc1cn(CCCCCCNC(=O)C(=C)C)n[n+]1C,L929,"viability, alamarBlue",3 days,> 50 µM
CCn1nc(Cl)c2c1-c1cnc(N)c(c1)O[C@H](C)c1cc(F)ccc1-c1nn(C)cc1C2,A-431,cell growth or viability,,3.65 µM
C[C@@H](c1ccccc1)N1C(=O)C2=Nc3ccccc3CN2C1=S,"CEM/ADR5000 (P-gp overexpressing, multidrug resistant)","cell viability, resazurin",72 h,0.46 ± 0.01 µM
CNS(=O)(=O)Nc1nccc(Cc2c(C)c3ccc(Oc4ncccc4F)cc3oc2=O)c1F,SNU-407,cell viability,7 days,> 1 µM
CCCN1C(=O)C2=Nc3ccccc3CN2C1=S,"CEM/ADR5000 (P-gp overexpressing, multidrug resistant)","cell viability, resazurin",72 h,63.9 ± 30.3 µM
O=C1C=CC(=O)N1CCCCCCCCCCOCc1cn(CCCCCCCCCCN2C(=O)C=CC2=O)nn1,L929,cell growth or viability,72 h,> 50 µM
Nc1ncnc2c1ncn2CCN1C(=O)/C(=N\N=C2/NC(=O)CS2)c2cc(F)ccc21,A498,"cell growth or viability, SRB",72 h,84.2 µg/mL
Cn1c(=O)n(C2CCC(=O)NC2=O)c2ccc(C3CCN(CC(=O)Nc4cccc(CS(=O)(=O)N5CC[C@H](Nc6cccc(-c7sc(C(=O)O)c(OCC(=O)O)c7Cl)c6)CC5(C)C)c4)CC3)cc21 (stereo partly drawn),B16-F10 cells,"IFNγ-induced STAT1 phosphorylation, HTRF, item: pSTAT1 Tyr701","24 h, together with: IFNγ",0.029 ± 0.027 µM
C[C@H](c1ccccc1)N1C(=O)C2=Nc3ccc(F)cc3CN2C1=S,"CEM/ADR5000 (P-gp overexpressing, multidrug resistant)","cell viability, resazurin",72 h,0.472 ± 0.051 µM
C=CC(=O)N1CCCC(n2c(=O)c3ncccc3n(Cc3ccc(Oc4ccccc4)cc3)c2=O)C1 (stereo not drawn),U2932,"cell growth or viability, MTT",72 h,10 µM
COc1ccc2c(c1)/C(=N/NC(N)=S)C(=O)N2CCn1cnc2c(N)ncnc21,BALB/3T3 clone A31,"cell growth or viability, SRB",72 h,23.3 µg/mL
C1=[N+]2CCCC[N+]3=Cc4ccc5[n]4[Au-]23[n]2c1ccc2-c1nc2ccccc2nc1-5.F[P-](F)(F)(F)(F)F,HCT-116 colon cancer,cell growth,,4.9 µM
COc1ccc2c(c1)CN1C(=S)N([C@H](C)c3ccccc3)C(=O)C1=N2,"CEM/ADR5000 (P-gp overexpressing, multidrug resistant)","cell viability, resazurin",72 h,1.33 ± 0.247 µM
C[n+]1nn(CCCCN2C(=O)C=CC2=O)cc1COCCCCN1C(=O)C=CC1=O,L929,cell growth or viability,72 h,29.5 µM
C[C@H](c1ccccc1)N1C(=O)C2=Nc3cccc(Cl)c3CN2C1=S,"CEM/ADR5000 (P-gp overexpressing, multidrug resistant)","cell viability, resazurin",72 h,0.146 ± 0.015 µM
CN1CCC(N[C@@H]2CCc3[nH]c4c(C(N)=O)ccc(-c5ccccc5Cl)c4c3C2)CC1,RBE,cell growth or viability,,0.00022 µM
O=C1C=CC(=O)N1CCCCCCOCc1cn(CCCCCCN2C(=O)C=CC2=O)nn1,L929,cell growth or viability,72 h,1.8 µM
C=CC(=O)N1C[C@H](C)N(c2nc(OC[C@@]34CCCN3C[C@H](F)C4)nc3c(F)c(-c4ccc(F)c5sc(N)c(C#N)c45)c(C(F)(F)F)cc23)C[C@H]1C,Ba/F3 expressing wild-type KRAS,"cell viability, CellTiter-Glo",3 days,0.0252 µM
C=CC(=O)NCCCCCCCCOCc1cn(CCCCCCCCNC(=O)C=C)nn1,L929,"viability, alamarBlue",3 days,> 50 µM
C[C@H](c1ccc(Br)cc1)N1C(=O)C2=Nc3ccccc3CN2C1=S,"CEM/ADR5000 (P-gp overexpressing, multidrug resistant)","cell viability, resazurin",72 h,0.532 ± 0.09 µM
CCOc1cncc(-c2ccc(NC(=O)C3(c4ccnc(NS(=O)(=O)C5CC5)n4)CCOCC3)nc2)n1,NUGC-4,"cell proliferation, CellTiter-Glo","72 h, Gastric cancer",10 µM
NC(=O)c1ccc(-c2ccccc2Cl)c2c3c([nH]c12)CC[C@H](N)C3,RBE,cell growth or viability,,0.00386 µM
NC1=C(Cl)C(=O)c2ccccc2C1=O,HuCC-A1,"cell growth or viability, MTT",,14 µM
C=CC(=O)NCCCCOCc1cn(CCCCNC(=O)C=C)nn1,L929,"viability, alamarBlue",3 days,> 50 µM
Cn1ncc(-c2ccc3c(=O)[nH]nc(CN)c3c2)c1-c1c(F)c(Cl)cc(OC2CC2)c1C#N,SK-HEP1,"cell viability, inhibitor, CellTiter-Glo","120 h, baseline-subtracted",0.11 µM
C=CC(=O)NCCCCCCCCOCc1cn(CCCCCCCCNC(=O)C=C)n[n+]1C,L929,"viability, alamarBlue",3 days,> 50 µM
CS(=O)(=O)c1sc(NC(=O)Nc2ccc(Cl)cc2)c2c1C=CCC2,PANC-1 NUPR1 knockout clone KO2,cell viability,72 h,24 µM
O=S(=O)(N[C@H]1CCC[C@@H](N2c3ccccc3CCc3ccccc32)[C@@H]1O)c1ccc(OC(F)(F)F)cc1,T98G,cell growth or viability,72 h,7.1 µM
COC(=O)N1c2ccc3c(nc(Cc4ccccc4)n3[C@@H]3CCC[C@@H](C(=O)O)C3)c2CC[C@@H]1C,DU-4475,"cell growth or viability, ATP luminescence",10 days,0.04 µM
Cc1ccc([N+](=O)[O-])cc1S(=O)(=O)N(C)/N=C/c1cnc2ccc(Br)cn12,A498,MTS,NCI60 panel,0.027 µM
CC(C)=CC1OC(C)(C)C2C=C3C(=O)C(Cl)=CC(O)C3C3C(O)C4OC4C(=O)C132 (stereo not drawn),SK-MEL-30,"cell growth or viability, MTS",,1.97 µM
O=C(NCc1cc(F)cc(F)c1)[C@@]1(O)CCN(c2ccc3[nH]ccc3c2)C1=O,LXFA526 lung adenocarcinoma,"colony formation, soft agar clonogenic",,0.16 µM
